Published values collected from several papers.
Every numbered part comes from another study and shows a few of its results, in no order. “And” joins repeats or separate records; there may be more than shown.
Chain of UniProt P08581 (whole entry, looked up): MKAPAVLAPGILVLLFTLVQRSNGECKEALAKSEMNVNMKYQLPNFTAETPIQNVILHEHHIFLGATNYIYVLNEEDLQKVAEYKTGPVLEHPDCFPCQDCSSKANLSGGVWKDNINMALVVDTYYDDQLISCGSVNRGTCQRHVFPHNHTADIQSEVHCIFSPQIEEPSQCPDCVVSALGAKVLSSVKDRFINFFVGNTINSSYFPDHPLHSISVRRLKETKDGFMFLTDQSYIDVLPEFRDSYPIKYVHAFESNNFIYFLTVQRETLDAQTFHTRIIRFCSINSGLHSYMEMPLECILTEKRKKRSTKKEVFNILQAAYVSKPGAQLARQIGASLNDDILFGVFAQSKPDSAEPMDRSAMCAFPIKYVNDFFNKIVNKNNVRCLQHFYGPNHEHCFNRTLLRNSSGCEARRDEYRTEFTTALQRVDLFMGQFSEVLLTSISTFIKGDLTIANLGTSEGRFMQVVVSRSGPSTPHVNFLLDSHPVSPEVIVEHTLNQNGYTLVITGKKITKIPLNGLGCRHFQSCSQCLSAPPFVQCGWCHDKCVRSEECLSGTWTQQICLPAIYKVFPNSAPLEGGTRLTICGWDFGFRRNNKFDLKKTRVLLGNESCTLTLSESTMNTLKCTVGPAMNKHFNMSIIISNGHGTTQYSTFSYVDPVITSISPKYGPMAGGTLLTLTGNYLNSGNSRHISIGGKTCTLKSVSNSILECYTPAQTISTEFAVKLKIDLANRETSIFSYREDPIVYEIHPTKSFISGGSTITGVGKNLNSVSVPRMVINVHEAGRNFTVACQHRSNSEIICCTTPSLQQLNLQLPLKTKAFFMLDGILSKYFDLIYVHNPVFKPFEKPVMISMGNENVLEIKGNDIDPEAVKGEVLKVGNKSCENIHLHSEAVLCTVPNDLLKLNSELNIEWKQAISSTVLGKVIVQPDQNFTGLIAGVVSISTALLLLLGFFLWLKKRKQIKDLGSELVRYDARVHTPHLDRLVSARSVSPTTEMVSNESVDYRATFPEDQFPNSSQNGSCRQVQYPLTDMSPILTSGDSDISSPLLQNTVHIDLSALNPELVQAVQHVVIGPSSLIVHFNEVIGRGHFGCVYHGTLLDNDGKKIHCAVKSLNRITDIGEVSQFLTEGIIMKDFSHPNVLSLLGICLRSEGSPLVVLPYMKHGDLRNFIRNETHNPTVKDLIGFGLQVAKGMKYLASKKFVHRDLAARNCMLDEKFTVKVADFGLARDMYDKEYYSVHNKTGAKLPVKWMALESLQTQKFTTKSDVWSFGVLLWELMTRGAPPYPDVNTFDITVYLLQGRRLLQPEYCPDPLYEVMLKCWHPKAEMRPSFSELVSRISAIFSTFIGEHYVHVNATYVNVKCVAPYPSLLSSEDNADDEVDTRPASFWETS
Chain of UniProt P06213 (whole entry, looked up): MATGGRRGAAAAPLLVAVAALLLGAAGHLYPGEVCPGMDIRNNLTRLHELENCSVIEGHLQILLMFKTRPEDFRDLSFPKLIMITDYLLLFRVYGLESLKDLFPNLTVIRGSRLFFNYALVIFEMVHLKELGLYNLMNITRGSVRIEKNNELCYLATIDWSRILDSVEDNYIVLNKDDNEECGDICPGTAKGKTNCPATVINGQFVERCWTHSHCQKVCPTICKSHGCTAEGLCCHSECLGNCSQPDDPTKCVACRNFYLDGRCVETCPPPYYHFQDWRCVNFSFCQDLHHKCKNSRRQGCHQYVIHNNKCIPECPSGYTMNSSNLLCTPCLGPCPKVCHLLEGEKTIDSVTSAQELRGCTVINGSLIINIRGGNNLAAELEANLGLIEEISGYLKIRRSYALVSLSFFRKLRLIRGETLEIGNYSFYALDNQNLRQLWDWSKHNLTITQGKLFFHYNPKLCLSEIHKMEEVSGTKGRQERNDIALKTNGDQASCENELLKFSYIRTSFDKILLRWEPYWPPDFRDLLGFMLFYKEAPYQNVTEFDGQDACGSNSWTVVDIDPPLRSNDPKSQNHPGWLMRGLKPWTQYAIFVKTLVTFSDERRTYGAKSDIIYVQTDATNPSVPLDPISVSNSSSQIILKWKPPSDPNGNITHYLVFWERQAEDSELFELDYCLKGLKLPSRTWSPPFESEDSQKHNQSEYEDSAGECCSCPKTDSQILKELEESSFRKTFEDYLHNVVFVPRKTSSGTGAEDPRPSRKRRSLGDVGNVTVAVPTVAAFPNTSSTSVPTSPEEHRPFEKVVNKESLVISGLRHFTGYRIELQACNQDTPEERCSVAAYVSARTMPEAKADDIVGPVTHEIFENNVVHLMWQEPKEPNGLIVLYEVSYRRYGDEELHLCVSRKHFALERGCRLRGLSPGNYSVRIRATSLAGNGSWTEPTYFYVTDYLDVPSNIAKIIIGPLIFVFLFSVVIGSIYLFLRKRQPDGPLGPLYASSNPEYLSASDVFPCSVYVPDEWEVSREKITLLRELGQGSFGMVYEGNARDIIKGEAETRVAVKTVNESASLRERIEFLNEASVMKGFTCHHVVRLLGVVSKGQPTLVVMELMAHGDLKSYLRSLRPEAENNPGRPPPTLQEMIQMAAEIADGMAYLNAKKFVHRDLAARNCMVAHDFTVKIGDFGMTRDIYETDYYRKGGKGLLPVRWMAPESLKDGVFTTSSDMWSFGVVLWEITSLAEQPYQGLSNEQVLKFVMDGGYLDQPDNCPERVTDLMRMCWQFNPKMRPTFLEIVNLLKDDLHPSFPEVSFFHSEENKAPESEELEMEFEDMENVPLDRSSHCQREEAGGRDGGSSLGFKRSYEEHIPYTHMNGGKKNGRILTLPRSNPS

Sample 1 — observed: RNA clamping; method: fluorescence polarization; concentration: concentration not given; with: FAM-labelled poly r(AG)8 RNA; direction: higher = more clamping
Target: Eukaryotic initiation factor 4A-I (EIF4A1, Homo sapiens, UniProt P60842)
Chain of UniProt P60842 (whole entry, looked up): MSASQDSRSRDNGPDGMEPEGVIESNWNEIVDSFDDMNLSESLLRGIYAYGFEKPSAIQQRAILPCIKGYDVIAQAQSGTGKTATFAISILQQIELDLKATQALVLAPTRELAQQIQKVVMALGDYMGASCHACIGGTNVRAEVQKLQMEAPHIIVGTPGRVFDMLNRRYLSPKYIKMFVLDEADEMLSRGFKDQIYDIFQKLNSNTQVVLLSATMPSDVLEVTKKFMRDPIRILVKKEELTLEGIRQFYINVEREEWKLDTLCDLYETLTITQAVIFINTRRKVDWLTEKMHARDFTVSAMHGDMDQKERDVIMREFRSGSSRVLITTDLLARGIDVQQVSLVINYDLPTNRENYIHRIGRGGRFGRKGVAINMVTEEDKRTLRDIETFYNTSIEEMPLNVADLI
CCCCN[C@@]12C(=O)[C@H](C(=O)OC)[C@@H](c3ccccc3)[C@]1(c1ccc(OC)cc1)Oc1cc(OC)cc(OC)c12: “fluorescence polarization change” 11.3 mP.
For COc1cc(F)cc2c1[C@]1(O)[C@H](O)[C@@H](C#N)[C@H](c3ccccc3)[C@]1(c1ccc(Br)cc1)O2, “fluorescence polarization change” read 11.7 mP.
Under “fluorescence polarization change”, COc1ccc([C@@]23Oc4cc(OC)cc(OC)c4[C@]2(O)[C@H](O)[C@H](C(=O)c2oc4ccccc4c2C)[C@H]3c2ccccc2)cc1 is recorded as -4.7 mP.
Under “fluorescence polarization change”, COC(=O)[C@@H]1[C@@H](c2ccccc2)[C@]2(c3ccc(OC)cc3)Oc3cc(OC)cc(OC)c3[C@@]1(O)C2(O)O is recorded as 2.7 mP.
COC(=O)[C@H]1[C@@H](O)[C@@]2(O)c3c(OC)cc(O)cc3O[C@@]2(c2ccc(Br)cc2)[C@@H]1c1ccccc1: “fluorescence polarization change” -2.3 mP and 72.3 mP.
CCOCCOCCN(OC)C(=O)[C@H]1[C@@H](O)[C@@]2(O)c3c(OC)cc(OC)cc3O[C@@]2(c2ccc(OC)cc2)[C@@H]1c1ccccc1: “fluorescence polarization change” 31.8 mP.
COc1ccc([C@]23Oc4cc(OC)cc(OC)c4[C@](O)([C@H](C(=O)OCc4ccccc4)[C@H]2c2ccccc2)[C@@H]3O)cc1 — result for “fluorescence polarization change”: 2.5 mP.
COc1ccc([C@@]23Oc4cc(OC)cc(OC)c4[C@]2(O)[C@H](O)[C@H](C(=O)c2ccco2)[C@H]3c2ccc(O)cc2)cc1 — result for “fluorescence polarization change”: 31 mP.
For COc1ccc([C@@]23Oc4cc(OC)cc(OC)c4[C@]2(O)C2=NNC(=O)C2=C3c2ccccc2)cc1, “fluorescence polarization change” read 9.6 mP.
COC(=O)[C@@H]1[C@@H](c2ccccc2)[C@]2(c3ccc(OC)cc3)Oc3cc(OC)cc(OC)c3[C@@]23NC(C2CCC2)=N[C@@]13O — result for “fluorescence polarization change”: 72.1 mP.
COc1ccc([C@@]23Oc4cc(OC)cc(OC)c4[C@]2(O)c2nc(C4CC4)[nH]c(=O)c2[C@H]3c2ccccc2)cc1: “fluorescence polarization change” 54.6 mP and 59 mP and 76.1 mP.

Sample 2 — observed: enzyme activity; mode: inhibitor; concentration: 10 µM
Target: Calcium/calmodulin-dependent protein kinase type II subunit alpha (CAMK2A, Homo sapiens, UniProt Q9UQM7)
Chain of UniProt Q9UQM7 (whole entry, looked up): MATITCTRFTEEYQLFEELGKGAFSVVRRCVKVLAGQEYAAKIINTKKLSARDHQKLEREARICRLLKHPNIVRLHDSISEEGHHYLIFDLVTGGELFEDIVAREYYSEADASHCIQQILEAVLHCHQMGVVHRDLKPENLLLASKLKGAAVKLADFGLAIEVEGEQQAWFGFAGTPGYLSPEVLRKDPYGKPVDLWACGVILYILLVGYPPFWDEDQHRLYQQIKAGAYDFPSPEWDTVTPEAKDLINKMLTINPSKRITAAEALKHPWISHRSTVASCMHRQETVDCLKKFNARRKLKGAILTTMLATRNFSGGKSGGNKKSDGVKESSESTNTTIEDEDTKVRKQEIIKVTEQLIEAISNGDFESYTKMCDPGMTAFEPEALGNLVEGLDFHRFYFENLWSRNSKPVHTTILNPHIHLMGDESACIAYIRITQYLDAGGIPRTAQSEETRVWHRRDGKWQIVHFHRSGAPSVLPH
C=C(C)[C@@H]1CC[C@]2(C(=O)O)CC[C@]3(C)[C@H](CC[C@@H]4[C@@]5(C)CC[C@H](OC(=O)CC(C)(C)C(=O)O)C(C)(C)[C@@H]5CC[C@]43C)[C@@H]12 has an inhibition of -9%.
With O=c1[nH]c(=O)n([C@H]2C[C@H](O)[C@@H](CO)O2)cc1F the inhibition was 2%.
CCCCCCCCCCCCCCCCCC(=O)NCc1ccccc1 gave an inhibition of -90%.
CCOC(=O)[C@H](CCc1ccccc1)N[C@H]1CCc2ccccc2N(CC(=O)O)C1=O gave an inhibition of -1%.
With C=C(C)[C@@H]1CC[C@]2(COC(C)=O)CC[C@]3(C)[C@H](CC[C@@H]4[C@@]5(C)CC[C@H](OC(C)=O)C(C)(C)[C@@H]5CC[C@]43C)[C@@H]12 the inhibition was -5%.
CCC[C@H](NC(=O)[C@@H]1[C@H]2CCC[C@H]2CN1C(=O)[C@@H](NC(=O)[C@@H](NC(=O)c1cnccn1)C1CCCCC1)C(C)(C)C)C(=O)C(=O)NC1CC1 has an inhibition of 3%.
O=c1cccccc1O has an inhibition of 7%.
For C=C(C)[C@@H]1CCC2=CCC[C@@H](C)[C@]2(C)C1, the inhibition was 25%.
With c1ccc2[nH]c(-c3cscn3)nc2c1 the inhibition was -6%.
CCCCCCCCOC(=O)c1cc(O)c(O)c(O)c1 gave an inhibition of 8%.
With O=c1c(O)cccc2cc(O)c(O)c(O)c12 the inhibition was 0%.
O=C(/C=C/c1ccc(O)c(O)c1)OC[C@@H](O)CO[C@@H]1O[C@H](CO)[C@@H](O)[C@H](O)[C@H]1O gave an inhibition of -15%.
CC1=CC(=O)c2ccccc2C1=O has an inhibition of -11%.

Sample 3 — method: competition with immobilised ligand
SMILES: C[C@@H]1CN(c2cc(-c3n[nH]c4ccc(OC5(C)CC5)cc34)ncn2)C[C@H](C)O1
For DDR1 (Homo sapiens, UniProt Q08345); cell-free assay; 0.1 µM: remaining binding read 91%.
It gave 67% for remaining binding (MAP3K15 (Homo sapiens, UniProt Q6ZN16); cell-free assay; 0.1 µM).
Insulin receptor (INSR, Homo sapiens, UniProt P06213); cell-free assay; 0.1 µM — remaining binding: 100%.
It gave 93% for remaining binding (DAPK1 (Homo sapiens, UniProt P53355); cell-free assay; 0.1 µM).
For ALK (Homo sapiens, UniProt Q9UM73, L1196M); cell-free assay; 0.1 µM: remaining binding read 78%.
The remaining binding was 43% (EGFR (Homo sapiens, UniProt P00533, del752-759); binding; 1 µM).
The remaining binding was 67% (KIT (Homo sapiens, UniProt P10721, D816H); cell-free assay; 0.1 µM).
IRAK1 (Homo sapiens, UniProt P51617); cell-free assay; 0.1 µM — remaining binding: 79%.
It gave 85% for remaining binding (STK35 (Homo sapiens, UniProt Q8TDR2); cell-free assay; 0.1 µM).
The remaining binding was 93% (MAPKAPK5 (Homo sapiens, UniProt Q8IW41); cell-free assay; 0.1 µM).
The remaining binding was 98% (MAP4K4 (Homo sapiens, UniProt O95819); cell-free assay; 0.1 µM).
BRSK1 (Homo sapiens, UniProt Q8TDC3); cell-free assay; 0.1 µM — remaining binding: 96%.
It gave 100% for remaining binding (SBK3 (Homo sapiens, UniProt P0C264); cell-free assay; 0.1 µM).

Sample 4 — SMILES: CCN(CC)CCCCN1c2ccccc2Oc2ccc(Cl)cc21; observed: enzyme activity; mode: inhibitor; concentration: 0.5 µM; reference: control
Cyclin-dependent kinase 9, with cyclin K (CDK9, Homo sapiens, UniProt P50750) — remaining activity: 105%.
The remaining activity was 103% (MAPK11 (Homo sapiens, UniProt Q15759)).
The remaining activity was 99.3% (Cyclin-dependent kinase 1, with cyclin A (CDK1, Homo sapiens, UniProt P06493)).
For CLK3 (Homo sapiens, UniProt P49761): remaining activity read 104%.
It gave 102% for remaining activity (PLK3 (Homo sapiens, UniProt Q9H4B4)).
For MAPK14 (Homo sapiens, UniProt Q16539): remaining activity read 95.8%.
For PRKG2 (Homo sapiens, UniProt Q13237): remaining activity read 94.4%.
For MET (Homo sapiens, UniProt P08581): remaining activity read 105%.
The remaining activity was 92.6% (ROCK1 (Homo sapiens, UniProt Q13464)).
It gave 101% for remaining activity (AKT2 (Homo sapiens, UniProt P31751)).
It gave 99.4% for remaining activity (DDR2 (Homo sapiens, UniProt Q16832)).
It gave 86.1% for remaining activity (MARK2 (Homo sapiens, UniProt Q7KZI7)).
It gave 101% for remaining activity (DCLK2 (Homo sapiens, UniProt Q8N568)).

For quick reference, copied from above (sample 2):
With O=c1c(O)cccc2cc(O)c(O)c(O)c12 the inhibition was 0%.
O=C(/C=C/c1ccc(O)c(O)c1)OC[C@@H](O)CO[C@@H]1O[C@H](CO)[C@@H](O)[C@H](O)[C@H]1O gave an inhibition of -15%.
CC1=CC(=O)c2ccccc2C1=O has an inhibition of -11%.
